Measurements pooled from the literature.
Protocols differ between the studies behind these lines. Values joined by “and” are separate records of one study, mostly repeats; a detail may differ.
rep papain-like protease: Replicase polyprotein 1ab, papain-like protease (rep, Porcine epidemic diarrhea virus, UniProt P0C6Y4)
AMY2: Pancreatic alpha-amylase (AMY2, Sus scrofa, UniProt P00690)
SLC6A2: Sodium-dependent noradrenaline transporter (SLC6A2, Homo sapiens, UniProt P23975)
NT5E: 5'-nucleotidase (NT5E, Homo sapiens, UniProt P21589)
SLC22A11: Solute carrier family 22 member 11 (SLC22A11, Homo sapiens, UniProt Q9NSA0)
PIP4K2C: Phosphatidylinositol 5-phosphate 4-kinase type-2 gamma (PIP4K2C, Homo sapiens, UniProt Q8TBX8)
rep main protease: Replicase polyprotein 1ab, main protease (rep, Porcine epidemic diarrhea virus, UniProt P0C6Y4)
CDK7 with cyclin H: Cyclin-dependent kinase 7, with cyclin H (CDK7, Homo sapiens, UniProt P50613)

CC[C@H](C)[C@H](NC(=O)[C@H](CCC(N)=O)NC(=O)[C@@H](NC(=O)[C@H](CCSC)NC(=O)[C@H](CCCCN)NC(=O)[C@H](CO)NC(=O)[C@@H](NC(=O)[C@H](CCSC)NC(=O)[C@H](CC(C)C)NC(=O)[C@H](CC(N)=O)NC(=O)[C@@H](NC(=O)[C@@H](NC(=O)[C@H](CO)NC(=O)[C@H](CC(C)C)NC(=O)[C@H](C)NC(=O)[C@H](CCCNC(=N)N)NC(=O)[C@H](CCC(=O)O)NC(=O)[C@H](Cc1ccc(O)cc1)NC(=O)[C@H](Cc1ccccc1)NC(=O)[C@H](C)NC(=O)[C@H](CC(N)=O)NC(=O)[C@@H](N)CCCCN)[C@@H](C)CC)[C@@H](C)CC)[C@@H](C)O)C(C)C)C(=O)N[C@@H](CC(N)=O)C(=O)N[C@H](C(=O)O)C(C)C — inhibition (Cyclin-dependent kinase 5, with p35 (CDK5, Homo sapiens, UniProt Q00535); enzyme activity, inhibitor, radiometric; 50 µM): 35%
COc1cc(CNC(=O)c2ccc(Cl)c(F)c2)cc(Br)c1OC — inhibition (rep papain-like protease; enzyme activity, inhibitor, FRET; 10 µM): 5.83%
NOCc1ccc(-c2nc3cc(-c4ccccc4)ccn3c2Nc2ccc(C(=O)O)cc2)cc1 — inhibition (Tyrosyl-DNA phosphodiesterase 1 (TDP1, Homo sapiens, UniProt Q9NUW8); enzyme activity, inhibitor; 100 µM): 34.5% and 44.8% and 23.5%
O=C(NCc1cc(O)c(O)c(Br)c1)c1ccno1 — inhibition (rep papain-like protease; enzyme activity, inhibitor, FRET; 10 µM): 97.8%
O=c1cc(-c2ccccc2)oc2cc(O)c(O)c(O)c12 — inhibition (AMY2; enzyme activity, inhibitor; 50 µM, 30 min): 63.8%
CC[C@H](C)[C@H](NC(=O)[C@H](CCC(N)=O)NC(=O)[C@H](CC(C)C)NC(=O)[C@H](CCSC)NC(=O)[C@H](CCCCN)NC(=O)[C@H](CO)NC(=O)[C@H](CO)NC(=O)[C@H](CCSC)NC(=O)[C@H](CC(C)C)NC(=O)[C@H](CC(N)=O)NC(=O)[C@@H](NC(=O)[C@@H](NC(=O)[C@H](CO)NC(=O)[C@H](CC(C)C)NC(=O)[C@H](CS)NC(=O)[C@H](CCCNC(=N)N)NC(=O)[C@H](CC(=O)O)NC(=O)[C@H](Cc1c[nH]c2ccccc12)NC(=O)[C@H](Cc1ccccc1)NC(=O)[C@H](C)NC(=O)[C@H](CCC(=O)O)NC(=O)[C@@H](N)CCCCN)C(C)C)[C@@H](C)CC)C(=O)N[C@@H](CC(N)=O)C(=O)N[C@@H](C)C(=O)O — inhibition (Mitogen-activated protein kinase 3 (MAPK3, Homo sapiens, UniProt P27361); enzyme activity, inhibitor, radiometric; 500 µM): 25%
O=C(NCc1cc(O)c(O)c(Br)c1)c1ccc(OC(F)(F)F)cc1 — inhibition (rep papain-like protease; enzyme activity, inhibitor, FRET; 10 µM): 75.4%
CCOC(=O)[C@@]12C[C@@H]1[C@@H](n1ccc3c(NCCCCCCCc4ccccc4)nc(C#Cc4ccccc4)nc31)[C@H](O)[C@@H]2O — inhibition (SLC6A2; ligand displacement, radioligand; 10 µM): 40%
O=C(NCc1cc(O)c(O)c(Br)c1)c1ccccc1 — inhibition (rep papain-like protease; enzyme activity, inhibitor, FRET; 10 µM): 87%
COC(=O)c1ccc(NC(=O)CSc2nc(-c3ccccc3)cc(C(F)(F)F)c2C#N)cc1 — inhibition (NT5E; enzyme activity, inhibitor, HPLC; 10 µM): 90%
COC(=O)/C(=C1/OC(=O)C(c2ccccc2)=C1O)c1ccccc1 — inhibition (SLC22A11; transporter uptake, inhibitor; 25 µM): 84.7%
CN(O)N=Nc1ccc(S(=O)(=O)Nc2nccs2)cc1 — inhibition (AMY2; enzyme activity, inhibitor; 180 µg/mL): 52.6%
Cc1cc(-c2ccccc2)nc2sc(C(=O)Nc3ccccc3)c(N)c12 — inhibition (NT5E; enzyme activity, inhibitor; 10 µM): 3%
CCCC(=O)Nc1ccc(-c2ccc3ncn(Cc4ccccc4)c(=O)c3c2)cn1 — inhibition (PIP4K2C; binding; 0.5 µM): < 80%
CCOC(=O)c1ccc(NC(=O)CSc2nc(C)cc(C)c2C#N)cc1 — inhibition (NT5E; enzyme activity, inhibitor; 10 µM): 0%
O=C(Nc1ccc(F)c(Cl)c1)c1ccc2c(c1)C(=O)NC2=O — inhibition (Amine oxidase [flavin-containing] B (MAOB, Homo sapiens, UniProt P27338); enzyme activity, inhibitor; 1 µM): 96.2%
Cc1ccc(N(O)N=Nc2ccc(S(=O)(=O)Nc3cc(C)on3)cc2)cc1 — inhibition (AMY2; enzyme activity, inhibitor; 180 µg/mL): 57.9%
COc1cc(CNC(=O)c2cccc(CCl)c2)cc(Br)c1OC — inhibition (rep main protease; enzyme activity, inhibitor, FRET; 10 µM): 31.8%
N#C[C@@]12C[C@@H]1[C@@H](n1cnc3c(Nc4ccccc4)nc(C#Cc4ccc(Cl)s4)nc31)[C@H](O)[C@@H]2O — inhibition (SLC6A2; ligand displacement, radioligand; 10 µM): 63%
Cc1cccc(N(O)N=Nc2ccc(S(=O)(=O)Nc3nccs3)cc2)c1 — inhibition (AMY2; enzyme activity, inhibitor; 300 µg/mL): 63.2%
CC1(C)[C@@H](O)CC[C@]2(C)[C@H]3C(=O)C=C4[C@@H]5C[C@@](C)(C(=O)O)CC[C@]5(C)CC[C@@]4(C)[C@]3(C)CC[C@@H]12 — inhibition (CDK7 with cyclin H; enzyme activity, inhibitor, ADP detection; 10 µM): 33.1%
COc1cc(CNC(=O)c2nccs2)cc(Br)c1OC — inhibition (rep main protease; enzyme activity, inhibitor, FRET; 10 µM): 0.51%
Cc1cc(-c2ccccc2)c2c(N)c(C(=O)Nc3ccon3)sc2n1 — inhibition (NT5E; enzyme activity, inhibitor; 10 µM): 51%
CC(=O)O[C@H]1C(=O)[C@@]2(C)[C@H]([C@H](OC(=O)c3ccccc3)[C@]3(O)C[C@H](OC(=O)[C@H](O)[C@@H](NC(=O)c4ccccc4)c4ccccc4)C(C)=C1C3(C)C)[C@]1(OC(C)=O)CO[C@@H]1C[C@@H]2O — inhibition (CDK7 with cyclin H; enzyme activity, inhibitor, ADP detection; 10 µM): 24%
Cc1cc(NS(=O)(=O)c2ccc(N=NN(O)c3ccccc3)cc2)no1 — inhibition (AMY2; enzyme activity, inhibitor; 120 µg/mL): 42.1%
Cc1cc(-c2ccccc2)nc2sc(C(=O)NCc3ccccc3)c(N)c12 — inhibition (NT5E; enzyme activity, inhibitor; 10 µM): 4%
CCCn1cnc2ccc(-c3ccc(NC(=O)CNCC)nc3)cc2c1=O — inhibition (PIP4K2C; binding, competition with immobilised ligand; 0.5 µM): 68%
c1cc2cc(C3=NCCN3)ccc2cc1C1=NCCN1 — inhibition (Rac GTPase-activating protein 1 (Homo sapiens, UniProt Q9H0H5); enzyme activity, inhibitor, ADP detection; 20 µM): 36.6%
O=C1C(CC[S+]([O-])c2ccccc2)C(=O)N(c2ccccc2)N1c1ccccc1 (stereo not shown) — inhibition (SLC22A11; transporter uptake, inhibitor; 25 µM): 97.5%
Cc1cc(O)c(-c2ccc([C@@H](C)CN(C)C)cc2)c2c1[nH]c(=O)c1sccc12 — inhibition (1-phosphatidylinositol 3-phosphate 5-kinase (PIKFYVE, Homo sapiens, UniProt Q9Y2I7); cell-free assay, inhibitor; 0.1 µM): 4.14%
CCCN(O)N=Nc1ccc(S(=O)(=O)Nc2nccs2)cc1 — inhibition (AMY2; enzyme activity, inhibitor; 20 µg/mL): 10.5%
COc1ccc(C(=O)NCc2ccc(O)c(O)c2)cc1 — inhibition (rep main protease; enzyme activity, inhibitor, FRET; 10 µM): 76.2%
NC/C(=C\F)COc1cccc(Cn2c(=S)[nH]c(=O)c3[nH]cnc32)c1 — inhibition (Diamine oxidase [copper-containing] (AOC1, Homo sapiens, UniProt P19801); enzyme activity, inhibitor; 0.1111 µM): 0.0962%
Cc1cc(C(F)(F)F)c2c(N)c(C(=O)NCc3ccccc3)sc2n1 — inhibition (NT5E; enzyme activity, inhibitor; 10 µM): 30%
CCN(O)N=Nc1ccc(S(=O)(=O)Nc2onc(C)c2C)cc1 — inhibition (AMY2; enzyme activity, inhibitor; 180 µg/mL): 42.1%
CN1CC(Oc2cnc(C#N)cc2-c2ccn3nc(NC(=O)C4CC4)cc3c2)C1 — inhibition (Ribosomal protein S6 kinase beta-1 (RPS6KB1, Homo sapiens, UniProt P23443); enzyme activity, inhibitor; 1 µM): 3%
CCCCCC(=O)Nc1ccc(-c2ccc3ncn(CCC)c(=O)c3c2)cn1 — inhibition (PIP4K2C; binding, competition with immobilised ligand; 0.5 µM): 97.7%
Nc1c(C(=O)Nc2ccon2)sc2nc(-c3ccccc3)cc(C(F)(F)F)c12 — inhibition (NT5E; enzyme activity, inhibitor; 10 µM): 62%
COc1cc2c(cc1OC)C(=O)N(CC1CCN(Cc3ccncc3)CC1)C2 — inhibition (Acetylcholinesterase (ache, Electrophorus electricus, UniProt O42275); enzyme activity, inhibitor; 1 µM): 0.39%
Cc1cc(NS(=O)(=O)c2ccc(N=NN(C)O)cc2)no1 — inhibition (AMY2; enzyme activity, inhibitor; 300 µg/mL): 68.4%
C=C(C)[C@@H]1CC[C@]2(C)CC[C@]3(C)[C@H](CC[C@@H]4[C@@]5(C)CC[C@H](O)C(C)(C)[C@@H]5CC[C@]43C)[C@@H]12 — inhibition (CDK7 with cyclin H; enzyme activity, inhibitor, ADP detection; 10 µM): 18.4%
O=S(=O)(Nc1nccs1)c1ccc(N=NN(O)c2ccccc2)cc1 — inhibition (AMY2; enzyme activity, inhibitor; 300 µg/mL): 68.4%
COc1ccc(CNC(=O)c2ccccc2)cc1OC — inhibition (rep main protease; enzyme activity, inhibitor, FRET; 10 µM): 34.5%

A few entries again:
O=C(NCc1cc(O)c(O)c(Br)c1)c1ccc(OC(F)(F)F)cc1 — inhibition (rep papain-like protease; enzyme activity, inhibitor, FRET; 10 µM): 75.4%
CCOC(=O)[C@@]12C[C@@H]1[C@@H](n1ccc3c(NCCCCCCCc4ccccc4)nc(C#Cc4ccccc4)nc31)[C@H](O)[C@@H]2O — inhibition (SLC6A2; ligand displacement, radioligand; 10 µM): 40%
O=C(NCc1cc(O)c(O)c(Br)c1)c1ccccc1 — inhibition (rep papain-like protease; enzyme activity, inhibitor, FRET; 10 µM): 87%
COC(=O)c1ccc(NC(=O)CSc2nc(-c3ccccc3)cc(C(F)(F)F)c2C#N)cc1 — inhibition (NT5E; enzyme activity, inhibitor, HPLC; 10 µM): 90%
COC(=O)/C(=C1/OC(=O)C(c2ccccc2)=C1O)c1ccccc1 — inhibition (SLC22A11; transporter uptake, inhibitor; 25 µM): 84.7%
CN(O)N=Nc1ccc(S(=O)(=O)Nc2nccs2)cc1 — inhibition (AMY2; enzyme activity, inhibitor; 180 µg/mL): 52.6%
